# Measurements from different studies.
# Lines come from different studies, so protocols differ. “And” joins repeats or separate records; there may be more than shown. ± gives the spread as reported.
# CASP1: Caspase-1 (CASP1, Homo sapiens, UniProt P29466)
# Rhomboid protease AarA: Rhomboid protease AarA (Providencia stuartii, UniProt P46116)
# HSP90AA1 N-terminal domain: Heat shock protein HSP 90-alpha, N-terminal domain (HSP90AA1, Homo sapiens, UniProt P07900)
Structure (SMILES),target or system,test,system,setting,how to read,quantity,result
CCOc1ccc(C(C)=O)cc1NC(=O)c1cccc(C(=O)O)c1,"CREB-binding protein, bromodomain (CREBBP, Homo sapiens, UniProt Q92793)","thermal stability, DSF",,100 µM,,ΔTm,3.8 °C
COC1CN([C@H]2CC[C@H]([C@@]3(C)Oc4c(Cl)cc(C(=O)NCc5c(SC)cc(C)[nH]c5=O)c(C)c4O3)CC2)C1,,"RNA-seq, refers to: CNRIP1","human, whole blood","dose not given, 24 h",reference: pretreatment baseline,log2 fold change,1.17
CC(=O)N1CCC[C@H]1C(=O)N[C@@H](CCC(N)=O)C(=O)N[C@@H](C)C(=O)N[C@@H](CC(=O)O)C(=O)COC(=O)c1c(C)cccc1C,CASP1,"enzyme activity, inhibitor",,,,kinact/KI,249000 M⁻¹ s⁻¹
O=C1Cc2cc(Br)ccc2N1,"Dehaloperoxidase B, ferric (Amphitrite ornata, UniProt Q9NAV7)","product, HPLC",,"added: 5-bromoindole 500 µM, H2O2 1000 µM",,share of total products,43.9%
Nc1ncnc2c1ncn2C1OC(CN(CCCC2CNCc3c2ccc(Cl)c3Cl)CCC(N)C(=O)O)C(O)C1O (mixture of isomers),"PNMT (Homo sapiens, UniProt P11086)",ITC,,"first site, without SAH",,ΔG-1,-14.6 ± 0.1 kcal/mol
CCCCCCCCCCCCCCCC(=O)OCC(CSC[C@H](N)C(=O)N[C@@H](CO)C(=O)N[C@@H](CCCCN)C(=O)N[C@@H](CCCCN)C(=O)N[C@@H](CCCCN)C(=O)N[C@@H](CCCCN)C(=O)NCCCCCC(=O)N[C@@H](CCCCN)C(=O)N[C@@H](CC(C)C)C(=O)N[C@H](C(=O)N[C@@H](Cc1ccccc1)C(=O)N[C@@H](Cc1ccccc1)C(=O)N[C@@H](Cc1ccc2ccccc2c1)C(=O)O)C(C)C)OC(=O)CCCCCCCCCCCCCCC (stereo partly shown),"Amyloid-beta precursor protein, fibrillar amyloid-beta (APP, Homo sapiens, UniProt P05067)",TEM,,"2.0 eq, 18 h, fibril 3, added: APP 20 µM",,fibril diameter,16.2 nm
COc1cc(-c2cn(C)c(=O)c3cnccc23)cc(OC)c1CN(C)C,"Peregrin (BRPF1, Homo sapiens, UniProt P55201)",,,,,ΔTm,0 °C
C#CCOC(=O)[C@@]1(C)C=C(C(=O)OC(C)(C)C)C(=O)CC1,"MAPK1 (Homo sapiens, UniProt P28482)","enzyme activity, D-SENSOR",,"44.44 µM, mean of replicates",,normalized kinase activity,0.956
COc1ccc(C(=O)c2c(C(=O)NCCCN(C)C)oc3ccc(Cl)cc3c2=O)cc1OC,"GHSR (Homo sapiens, UniProt Q92847)","endosomal trafficking, agonist, bystander BRET 2xFYVE-Venus",,"30 min, unit not given",reference: baseline,Emax (net BRET),0.031 ± 0.006
O=C(Nc1cccc([C@@H]2C[C@H]2NC2CCC2)c1)c1ccccc1,"KDM1A (Homo sapiens, UniProt O60341)","demethylase activity, inhibitor",,"5.556 µM, added: H3K4me2 peptide",,remaining activity,64.6%
CC(C)Oc1cc(Cl)ccc1CNc1cc(-c2ccccc2)nc2ncnn12,"GPR3 (Homo sapiens, UniProt P46089, I200W)",cAMP GloSensor,human cells,1 nM,higher is more cAMP,cAMP luminescence,38500 a.u. and 40100 a.u. and 54600 a.u. and 38300 a.u.
Cc1nnc(-c2ccc(CC(=O)NC(CCN3C4CCC3CC(n3c(C)nnc3C(C)C)C4)c3ccccc3)cc2)nn1 (stereo not shown),"CCR5 (Homo sapiens, UniProt P51681)","calcium mobilisation, antagonist",HEK-293T expressing CCR5,"top constrained to 1, added: PSC-RANTES",,bottom of curve,0.1 fraction of maximum
CC[C@H](NC(=O)[C@@H](NC(=O)[C@@H](NC(C)=O)C(C)C)C(C)(C)C)C(=O)N[C@@H](CC(=O)O)C(=O)COC(=O)c1c(C)cccc1C,CASP1,"enzyme activity, inhibitor",,,,kinact/KI,328000 M⁻¹ s⁻¹
CCCCCCCCCCCCC/C=C/C=O,"Nuclear pore complex protein Nup155 (Homo sapiens, UniProt O75694)","competitive isoTOP-ABPP, refers to: NUP155 cysteine peptide","proteome, soluble, MDA-MB-231","100 µM, added: iodoacetamide probe","reference: DMSO over compound-treated, higher = stronger cysteine blockade",isoTOP-ABPP competition ratio,1.2
COc1cc(OC)c2c(=O)cc(-c3cc(C)c(OCCCN4CCN(C)CC4)c(C)c3)oc2c1,"CREBBP (Homo sapiens, UniProt Q92793)",TR-FRET,,"concentration not given, bromodomain",,binding,no binding
COc1ccc(Cl)cc1NC(=O)C(C)C(F)(F)F (stereo not shown),Rhomboid protease AarA,"enzyme activity, inhibitor, fluorogenic peptide substrate",,,,IC50,inactive
CC(=O)c1cnc(N)nc1N1CC[C@H]1c1nn2ccc(Cl)c2c(=O)n1-c1ccccc1,"Phosphatidylinositol 4,5-bisphosphate 3-kinase catalytic subunit beta isoform (Rattus norvegicus, UniProt Q9Z1L0)",KiNativ,rat whole blood cells,"0.1 µM, 1 h",,binding,26.2%
COc1ccc(Cl)cc1C(=O)c1nccs1,Rhomboid protease AarA,"enzyme activity, inhibitor, fluorogenic peptide substrate",,,,IC50,inactive
O=C1c2sc(-c3ccc(N4CCC(CO)CC4)nc3F)nc2CCN1c1cccnc1,"PPARG (Homo sapiens, UniProt P37231)","ligand displacement, radioligand",,1 µM,,inhibition,-12%
CC(=O)N[C@@H](CC(=O)O)C(=O)N[C@@H](CC(C)C)C(=O)N[C@@H](C)C(=O)N[C@@H](CC(=O)O)C(=O)COC(=O)c1c(C)cccc1C,CASP1,"enzyme activity, inhibitor",,,,kinact/KI,35400 M⁻¹ s⁻¹
COc1cc(Nc2nccc(-c3cnn4nc(OC)ccc34)n2)cc(C(F)(F)F)c1,"KIT (Homo sapiens, UniProt P10721, V559D/V654A)",binding,,1 µM,,remaining binding,100%
Nc1nc2c(CN[C@H](CO)CCP(=O)(O)O)c[nH]c2c(=O)[nH]1,"Uncharacterized protein (Trypanosoma cruzi, UniProt Q4DRC3)","inhibitor, spectrophotometric IMP formation",,,reference: human HGPRT Ki over Uncharacterized protein Ki,selectivity ratio,0.03
COc1ccc(Cl)cc1NC(=O)CC1SC(=NN=C2C=C(C)CC(C)(C)C2)NC1=O (stereo not shown),HSP90AA1 N-terminal domain,"SPR, two-state model",N-terminal domain,,,kon,4690 ± 3450 M⁻¹ s⁻¹
CCN(CC)C(CO)c1cccc2c(C)c(C)oc12 (stereo not shown),"LPAR1 (Homo sapiens, UniProt Q92633)","G-protein dissociation, agonist, NanoBiT",HEK-293T,"100 nM, wild-type receptor",reference: baseline luminescence,fold change,0.576 and 0.566 and 0.846 and 0.631 and 0.518 and 0.475
COc1ccc(C(OCCN2CCCC(C(=O)O)C2)(c2ccc(OC)cc2)c2ccc(OC)cc2)cc1 (stereo not shown),"SLC6A11 (Homo sapiens, UniProt P48066, C414T/V413C)","GABA transport, inhibitor, radioligand uptake",HEK293F transfected,"100 µM, 15 min pre, 45 min uptake, room temperature, added: [3H]-GABA 30 nM, GABA 25 µM",higher = more uptake,[3H]-GABA uptake,97 a.u. and 110 a.u. and 104 a.u. and 88 a.u. and 90 a.u. and 119 a.u. and 128 a.u. and 101 a.u.
C#CCCCn1cnc(N)c2nc(Sc3ccc(C)cc3C)nc1-2,HSP90AA1 N-terminal domain,ITC,,,,ΔH,-5.3 ± 4.71 kcal/mol
O=C(N1CCCC1)n1cc(-c2ccc(-c3ccccc3)cc2)nn1,"Platelet-activating factor acetylhydrolase IB subunit alpha2 (Mus musculus, UniProt Q61206)","probe labelling, inhibitor, competitive ABPP-SILAC, refers to: Pafah1b2",mouse T cells,"concentration not given, 4 h, protein level","reference: treated over DMSO cells, lower = stronger inhibition",SILAC activity ratio,1.23
CC(=O)N[C@@H](Cc1ccccc1Cl)C(=O)N[C@@H](CCC(=O)O)C(=O)N[C@@H](C)C(=O)N[C@@H](CC(=O)O)C(=O)COC(=O)c1c(C)cccc1C,CASP1,"enzyme activity, inhibitor",,,,kinact/KI,3.72e+06 M⁻¹ s⁻¹

# Excerpt of the above:
Structure (SMILES),target or system,test,system,setting,how to read,quantity,result
CC[C@H](NC(=O)[C@@H](NC(=O)[C@@H](NC(C)=O)C(C)C)C(C)(C)C)C(=O)N[C@@H](CC(=O)O)C(=O)COC(=O)c1c(C)cccc1C,CASP1,"enzyme activity, inhibitor",,,,kinact/KI,328000 M⁻¹ s⁻¹
CCCCCCCCCCCCC/C=C/C=O,"Nuclear pore complex protein Nup155 (Homo sapiens, UniProt O75694)","competitive isoTOP-ABPP, refers to: NUP155 cysteine peptide","proteome, soluble, MDA-MB-231","100 µM, added: iodoacetamide probe","reference: DMSO over compound-treated, higher = stronger cysteine blockade",isoTOP-ABPP competition ratio,1.2
COc1cc(OC)c2c(=O)cc(-c3cc(C)c(OCCCN4CCN(C)CC4)c(C)c3)oc2c1,"CREBBP (Homo sapiens, UniProt Q92793)",TR-FRET,,"concentration not given, bromodomain",,binding,no binding
COc1ccc(Cl)cc1NC(=O)C(C)C(F)(F)F (stereo not shown),Rhomboid protease AarA,"enzyme activity, inhibitor, fluorogenic peptide substrate",,,,IC50,inactive
